Assay results pooled from the literature.
± gives the spread as reported.

For C#CCNC(=O)[C@H]1Cc2c([nH]c3ccccc23)[C@@H](c2ccc3c(c2)OCO3)N1C(=O)C=C, target engagement read “active” (human SARM1; gel-based ABPP; HEK293T expressing SARM1; 20 µM, 1 h).
C[n+]1c(/C=C/c2ccc(N(c3ccccc3)c3ccccc3)cc2)cc(/C=C2\Sc3ccccc3N2CCCN2CCCC2)c2ccccc21 has a ΔTm of 3.3 °C (Telo21 G-quadruplex DNA; CD melting; 5 µM, 60 mM KCl, added: 5 µM G4-DNA).
For CN(C)CCCNC(=O)c1cc(NC(=O)c2cc(NC(=O)c3cc(NC(=O)c4nc(NC(=O)[C@H](N)CCNC(=O)c5cc(NC(=O)c6cc(NC(=O)c7nc(NC(=O)c8nccn8C)cn7C)cn6C)cn5C)cn4C)cn3C)cn2C)cn1C, the melting temperature was 76.2 ± 2.3 °C (12-mer DNA duplex; DNA binding, UV thermal denaturation; 2.4 µM, pH 7.0, match base pair T·A, added: DNA duplex 2 µM).
CC(=O)N[C@@H](CC(N)=O)C(=O)NCC(=O)N[C@@H](C)C(=O)N[C@@H](C)C(N)=O — result for “rate constant k1”: 0.219 h⁻¹ (Asn-Gly peptide isomerisation to succinimide; 1H NMR time course; pH 7.4, 55 °C).
For CN(C)CCCNC(=O)c1cc(NC(=O)c2cc(NC(=O)c3cc(NC(=O)c4nc(NC(=O)[C@H](N)CCNC(=O)c5cc(NC(=O)c6cc(NC(=O)c7nc(NC(=O)c8nccn8C)cn7C)co6)co5)cn4C)cn3C)cn2C)cn1C, the melting temperature was 69.1 ± 0.3 °C (12-mer DNA duplex; DNA binding, UV thermal denaturation; 2.4 µM, pH 7.0, mismatch base pair C·G, added: DNA duplex 2 µM).
For C=C(CC)C(=O)c1ccc(OCC(=O)NCCNC(=O)COc2ccc(C(=O)C(=C)CC)c(Cl)c2Cl)c(Cl)c1Cl, the inhibition was about 70% (glutathione S-transferase, human; enzyme activity; A549 cell lysate; 0.2 µM).
Cc1cccc(O[C@H]2CCC[C@@H](C(C)CNCc3ccncc3)C2)c1 (relative stereo) — result for “reduction of complex I activity”: about 15% (mitochondrial complex I (mouse); NADH oxidation, inhibitor; isolated mouse brain mitochondria; 1 µM).
C[N+](C)(CCl)CCO gave an EC50 of 8.9 nM (TMA lyase; TMA production, whole-cell; Proteus mirabilis, wild type).
Under F-actin amount, CCOC(=O)C(Cc1cccc(O)c1)OC(=O)C=Cc1ccc(O)c(O)c1C=Cc1ccc(O)c(O)c1 (centres unmarked) is recorded as “increased” (actin with transgelin; negative-stain electron microscopy; concentration not given).
For CC1(C)COCN1C(=O)n1nnc2c(F)cc(F)cc21, the remaining activity was 82 ± 5% (carboxylesterases (rat); inhibitor; rat liver microsomes; 10 µM; relative to: control).
NS(=O)(=O)c1ccc(N2N=C(C(F)(F)F)CC2c2ccc(F)cc2F)cc1 (centres unmarked) gave a selectivity ratio of 3.2 (dog COX-1 and COX-2; dog whole blood; relative to: IC50 COX-1 over COX-2).
CO[C@@H]1[C@H](O)[C@@H](COP(=O)(O)OP(=O)([S-])OP(=O)(S)OP(=O)(O)OC[C@H]2O[C@@H](n3cnc4c(=O)[nH]c(N)nc43)[C@H](O)[C@@H]2O)O[C@H]1n1c[n+](C)c2c(O)nc(N)nc21 (mixture of isomers) gave a decapped RNA of 10 to 30% (Schizosaccharomyces pombe Dcp1/Dcp2; substrate; 5 to 15 min, RNA capped with compound).
Under “NC-RNA complex dissociation”, CCOc1ccc(-c2nc3cc(-c4nc5cc(N6CCN(C)CC6)ccc5[nH]4)ccc3[nH]2)cc1 is recorded as “no effect” (HIV-1 nucleocapsid protein-RNA NC•SL3 complex; ESI-FTMS; 0.35 to 17.5 µM, added to preformed complex).
C1=[N+]2CCCC[N+]3=Cc4ccc5[n]4[Au-]23[n]2c1ccc2-c1nc2ccccc2nc1-5.F[P-](F)(F)(F)(F)F gave a delta Tm of 4.4 °C (dsDNA fragment human ACTN3 291 bp; DNA melting; 50 µM).
CCCCC/C=C/C(=O)CCc1ccc(O)c(OC)c1 gave an IC50 of over 4 µg/mL (mAb 6-AT6; antibody binding, indirect competitive ELISA; added: coating antigen 1-OVA).
CC(C)c1cnc(-c2cc(Cl)ccc2F)cc1Nc1ccncc1C(=O)NC(CO)CO has an IC50 of 56.8 ± 7.73 nM (TGF-β receptor type 1 (human); SMAD2 Ser465/467 phosphorylation, inhibitor; human PBMC; unbound drug, added: TGF-β).
Under “number of kinases inhibited”, CNC(=O)c1ccccc1Oc1nc(Nc2cc(OC)c(OC)c(OC)c2)ncc1Br is recorded as 30 (human protein kinase panel; 1 µM; inhibition above 25%).
C[N+](C)(CI)CC(=O)O has an EC50 of 2600 nM (TMA lyase; TMA production, whole-cell; Proteus mirabilis, wild type).
With COc1cc(CCC(C)=O)ccc1O the IC50 was over 4 µg/mL (mAb 6-AT6; antibody binding, indirect competitive ELISA; added: coating antigen 4-OVA).
With Cn1c(=O)oc2ccc(-c3ccc(CC(C#N)NC(=O)C4CNCCCO4)c(F)c3)cc21 (centres unmarked) the ED50 was 1.13 mg/kg (neutrophil elastase (rat); enzyme activity, inhibitor; rat, bone marrow cells).
The current potentiation of Cc1sc2ncn(CC(=O)N3CCCC3)c(=O)c2c1-c1ccc(Cl)cc1 is reported as at most 8 fold (NMDA receptor rat recombinant; potentiator, voltage clamp; dose not given, added: sub-saturating agonists; relative to: control).
Under PCR amplification, Cc1ccc(NC(=O)c2c(C)oc3ccc(O)c(CN4CCCCCC4)c23)cc1 is recorded as “no effect” (mutant MYC Pu27 DNA, non-G4; PCR stop; up to 100 µM).
CCCCN1C(=O)c2cccc3c(NCCCCCCN4CCOCC4)ccc(c23)C1=O gave an emission maximum of 519 nm (lysosomes; confocal lambda scanning; HEK293; lysosomal micro-polarity).
Cc1c(OCc2ccccc2)c(=O)ccn1CCCOC(=O)c1ccccc1[N+](=O)[O-] gave an inhibition of 1% (β-hematin formation; 200 µg/mL, 24 h, 60 °C).
With CN(C)CCCNC(=O)c1cc(NC(=O)c2cc(NC(=O)c3cc(NC(=O)c4nc(NC(=O)[C@H](N)CCNC(=O)c5cc(NC(=O)c6cc(NC(=O)c7nc(NC(=O)c8nccn8C)cn7C)cn6C)co5)cn4C)cn3C)cn2C)cn1C the melting temperature was 75.2 ± 1.5 °C (12-mer DNA duplex; DNA binding, UV thermal denaturation; 2.4 µM, pH 7.0, match base pair T·A, added: DNA duplex 2 µM).
Under “glutathione peroxidase activity”, O=C(/C=C/c1ccc(O)cc1)OCCCC[P+](c1ccccc1)(c1ccccc1)c1ccccc1 is recorded as “increased” (glutathione peroxidase, rat; rat mitochondria; 10 µM, 15 and 30 min).
C=C(CC)C(=O)c1ccc(OCC(=O)NCCCCNC(=O)COc2ccc(C(=O)C(=C)CC)c(Cl)c2Cl)c(Cl)c1Cl gave an inhibition of about 25% (glutathione S-transferase, human; enzyme activity; CoC1 cell lysate; 0.2 µM).
C[N+](C)(CBr)CCO gave an EC50 of 4.4 nM (TMA lyase; TMA production, whole-cell; Proteus mirabilis, wild type).
Under “rate constant k1”, CC(=O)N[C@@H](CC(N)=O)C(=O)NCC(=O)N[C@@H](CCCNC(=N)N)C(=O)N[C@@H](C)C(N)=O is recorded as 0.0318 h⁻¹ (Asn-Gly peptide isomerisation to succinimide; 1H NMR time course; pH 7.4, 37 °C).
CC(C)C[C@H](NC(=O)[C@H](CCC(N)=O)NC(=O)[C@H](CCCNC(=N)N)NC(=O)[C@H](CCCNC(=N)N)NC(=O)[C@@H](NC(=O)[C@H](CCCNC(=N)N)NC(=O)[C@@H](NC(=O)[C@H](CO)NC(=O)[C@@H](N)CS)[C@@H](C)O)C(C)C)C(N)=O — result for superoxide production: “no inhibition” (human Nox1/p47phox/NOXA1; inhibitor, cytochrome c reduction; 10 µM).
CN(C)CCCNC(=O)c1cc(NC(=O)c2cc(NC(=O)c3cc(NC(=O)c4nc(NC(=O)[C@H](N)CCNC(=O)c5cc(NC(=O)c6cc(NC(=O)c7nc(NC(=O)c8nccn8C)cn7C)co6)cn5C)cn4C)cn3C)cn2C)cn1C gave a melting temperature of 76.6 ± 1.1 °C (12-mer DNA duplex; DNA binding, UV thermal denaturation; 2.4 µM, pH 7.0, match base pair A·T, added: DNA duplex 2 µM).
Under “DDR1 tyrosine phosphorylation”, CCNS(=O)(=O)c1ccc(COc2ccc3nc4ccc(=O)cc-4oc3c2)cc1 is recorded as “no effect” (human DDR1; HEK293 DDR1-Myc; 0.25 to 2 µM, 4 h, added: collagen I 30 µg/mL).
